# Measurements from different studies.
# Each numbered part is a random draw from the data of one study; scales do not carry over between parts.

# Series 1
# Target: Ras GTPase-activating protein-binding protein 1, full length (G3BP1, Homo sapiens, UniProt Q13283)
# Sequence of UniProt Q13283 (whole entry, looked up): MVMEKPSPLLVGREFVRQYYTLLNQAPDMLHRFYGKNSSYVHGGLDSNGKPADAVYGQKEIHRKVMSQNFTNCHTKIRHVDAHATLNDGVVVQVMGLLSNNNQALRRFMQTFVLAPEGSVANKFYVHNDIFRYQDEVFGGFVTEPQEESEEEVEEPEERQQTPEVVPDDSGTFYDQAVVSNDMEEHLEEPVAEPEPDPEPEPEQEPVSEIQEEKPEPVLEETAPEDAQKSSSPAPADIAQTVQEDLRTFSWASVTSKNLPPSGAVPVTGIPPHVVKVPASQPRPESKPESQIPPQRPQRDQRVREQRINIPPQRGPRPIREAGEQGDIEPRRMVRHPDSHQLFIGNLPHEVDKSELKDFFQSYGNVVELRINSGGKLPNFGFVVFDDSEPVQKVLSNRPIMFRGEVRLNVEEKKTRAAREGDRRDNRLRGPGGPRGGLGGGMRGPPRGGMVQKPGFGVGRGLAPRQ
# Technique: RNA Bind-n-Seq
# Molecule type: RNA
# Matrix: in vitro
# Concentration: 200 nM
# Notes: whole 134-nt RNA, ends assumed
# Together with: 150 mM LiCl
# Baseline: input library
# Direction: higher = stronger binding
# Each molecule: 7-deaza-guanosine replaces G
# Shared flanks, not repeated: GGGAGUUCUACAGUCCGACGAUC … UGGAAUUCUCGGGUGUCAAGG
Strand,log2 enrichment
UAACUUUAGAGGAGGAUCUGAUGGAUAUGGCAGUGGACGUGGAUUUGGGGAUGGCUAUAAUGGGUAUGGAGGAUGACCUGGAGGUGGCAA,-0.197
UGGCCCUGGAGGCAUGCGGGGAGGAAGAGGUGGCCUCAUGGAUCGUGGUGGUCCCGGUGGAAUGUUCAGAGGUGGCCGUGGUGGAGACAG,0.126
GUCCUGUGCUACACAUCGUAUGUACCGAAUCGGGCCCCGGGGCCCCGGGGCCCCGGGGAAAGUAUUAUGUUACGCCGUUCGGAUCUGCAC,-0.0682
UUCGAAGAGGUUGUGUACCAGGCCAUGGGUGAGUGCCCGGGCCACCGAGGCCACGUGCCUCCACGAGGGGCUGCCUAUGCCCCACCCUGG,-0.0138
UAGCCAAGAGUCGAAGCUAAACCAGAAGUUCAAUCUCAGCCACCUCGUGUGCGUGAACAACGACCUAGAGAACGACCUGGUUUUCCUCCU,0.00937
UCCUGUGCUACACAUCGUAUGUACCGAAUCGGUUUUUUUGGUUUUUUUGGUUUUUUUGGAAAGUAUUAUGUUACGCCGUUCGGAUCUGCA,0.182
CCUCAAGUCCUGUGCUACACAUCGUAUGUACCGAAUCGGGAGGGAGGGAGGGGAAAGUAUUAUGUUACGCCGUUCGGAUCUGCACUUCCA,-0.419
UCAAGUCCUGUGCUACACAUCGUAUGUACCGAAUCGGCCCGGCCCGGGCCCGGGAAAGUAUUAUGUUACGCCGUUCGGAUCUGCACUUCC,-0.405

# Series 2
# Target: RNA binding protein fox-1 homolog 2, RRM domain, GST-SBP tag (RBFOX2, Homo sapiens, UniProt O43251-10, residues 100-194)
# Technique: RNA Bind-n-Seq
# Molecule type: RNA
# Matrix: in vitro
# Concentration: 365 nM
# Notes: natural RNA segment, single round, ends assumed
# Baseline: no-protein control
# Direction: higher = stronger binding
# Shared flanks, not repeated: GGGAGUUCUACAGUCCGACGAUC … UGGAAUUCUCGGGUGCCAA
# Residues (chain): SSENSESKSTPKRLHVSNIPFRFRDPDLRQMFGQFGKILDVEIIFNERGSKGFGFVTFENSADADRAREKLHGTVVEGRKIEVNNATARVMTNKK
Strand,RBNS enrichment (R)
GAGGGUGCUGGAAGGGGUUGGUGGUGAUUGUGGGUGUCUAAACUGGAAUUCUUUUGUCCAUGUUAAAAAGACUUGAAAACUGAAACGUCACGGUACAGUGUUAAUUCACG,0.943
CAUCUUUUAACUCUAACACAGGGAUACUAACCUUUUUCCCUGGCUAAGACAGACUGAGGGCAUUGCAUUACAAUGGCCAGAAACUACACCCAUGAGUGCAACGACCAAGG,0.323
AGAUCCUCUCAAGUGUCUAUUAGAUAGGCAAUAAGAACUGCAGUGUAGCUGGGAAGCAUCUUUUAGCCGACUAUACAUCACUUUGUUUUGAAACAAGGAAGCUGCGCUCU,0.366
CUAUGAAAACUCAUGUUUCUCUGUUUCUCUUUUCCACAAUUCCAUUUUCUUUGGCAUCUCUUUGCCCUUUCCUCUGGAGUCUUUCUUGAGUACUGAUUUCAUGUUGAAUU,0.417
UAGAAACCUUUUUCUACUUACUAUCAUUUUUAUUGUGGCUUGAGCUCAGUCAAUCUGGUGCAGAUGAGGCUGGACAACUACUAACCAAUAAAAUCAGGAGUUUGUACAAA,0.3
CCUGGUCUGUCUCCUCAGGGCAGGGCCCAGCACACUGCCCGGCCAGUCCUCCUACCUCCCGAGUCUGCGGGCAGCUGCUGUCCCAGCAUCUGCUGGUCAUUUCGCCCUGA,0.339
CCAGAUGCGCUUCCUGAGCUCUUGGAUCAGUGCGCUGAAGGGCCGCACUUACAAGUGCCUGUCUGGAGGGUUCUCAAGUGUCAGCGCCACACAAGUCAUCCUGCCUGGCU,0.279
CCUGGGACAGGAAAGAGAGGAACCAAUACCUUCAAGGCUCUUCUUCCUCACCGAGCAUGCUUCCCUAGGAUCCCGUCUUCCAGAGAACCUGUGGGCUGACUGCCCUCCGA,16.1

# Series 3
# Target: RING finger protein unkempt homolog, zinc fingers 1-6, GST-SBP tag (UNK, Homo sapiens, UniProt Q9C0B0, residues 30-357)
# Sequence of UniProt Q9C0B0 (30-357, looked up): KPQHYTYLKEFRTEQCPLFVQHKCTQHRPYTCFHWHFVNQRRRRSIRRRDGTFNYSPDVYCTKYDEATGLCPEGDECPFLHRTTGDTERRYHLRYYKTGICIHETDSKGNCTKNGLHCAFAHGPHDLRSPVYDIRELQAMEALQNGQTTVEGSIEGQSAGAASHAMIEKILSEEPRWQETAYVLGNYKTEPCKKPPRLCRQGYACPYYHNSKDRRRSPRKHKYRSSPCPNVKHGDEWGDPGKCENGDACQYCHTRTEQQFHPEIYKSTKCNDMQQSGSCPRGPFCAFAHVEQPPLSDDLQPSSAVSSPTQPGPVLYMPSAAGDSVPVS
# Technique: RNA Bind-n-Seq
# Molecule type: RNA
# Matrix: in vitro
# Concentration: not given
# Notes: RNA with constant flanks, human-mouse chimeric sites, ends assumed
# Baseline: input RNA pool
# Direction: higher = stronger binding
# Shared flanks, not repeated: GGGAGUUCUACAGUCCGACGAUC … CAACAGAGGAUUGAGCAUCA
Strand,bound/input enrichment [ratio]
GAGCGUCUCGCUCGAACCGGGAUCAUAGUGACCACUAGUGAGGCUGUCCUCCUACAGCUGGUGGCUGACAAAGACCACCCGAAGUUCAAGGAAAUUCAGAACCUAAUUAAGGCGAGUGCC,0.172
CGCUGGCGUUGAACUGUGGACUCUGAUGGCCUCCAUCUCUCAGGCACGUGUGCCUUCUCUUAGUCCCUGUUUUCGGGAUGUUAUGAAUCUCAGUACUGUGGUUUGAAAGCACCAGCUUUG,0.172
GCCACCAGAUCCCAGAAACAUGACCCUUGCAGCCUAUAAAGAGAAGAUGAAGGAGCUCCCGCUGGUGUCCUUGUUCUGCUCCUGCUUCUUGUCUGAUCCCCUGAAUAAGUCGUCCUACAA,0.288
CUGGCACUCUAUCAGAUAUAUUAAUUUUUUAAUGUAGAUGUAAUUUUAAAAAUGAAUGGCUACUUUACACGUUUAACUAGGCUCUUACUAUAUAUGUGUGUGUAUAUAUAUAUAUAUAUA,8.67
UCUGGUCAUACUCGUGCGUAUGGUGUUUGCUUUGUGGACACUUCACUGGGCAAGUUUUUCAUCGGCCAGUUUUCGGAUGACCGCCACUGUUCCAGAUUUAGGACGCUAGUGGCACACUAU,0.17
UGGGCACUCUAUCAGAUAUAUUAAUUUUUUAAUGUAGAUGUAAUUUUAAAAAUGAAUGGCUAGUUUACACGUUUAACUAGGGUUUUACUAUAUAUGUGUACAUAUGUAUAUAUAUAUAUA,4.72
UCAGUCUUUUUGUACAGUAAGUUAUUUUCUUAACAUUUUUAUAUUGCCAUGUUUAUUUUGUUUGGGUAAUUUGGUUCAUUAAGUACAUAGCUAAGGUAAUGAACAUCUUUUUCAGUAAUU,2.44
GAUAGGAAAAGCUUGUUGGAGACCCGCUUGCAUGUCACUGGUAGAGACCUGAGGUGUCAAAUAGCUGAAACUUUCGGAUUUCAAGAAAAUUAUAUCAAGAUCGUAAUAAAUAAGAAACAG,0.805

# Series 4
# Target: PABPC1L2, full length, GST fusion (mouse, UniProt A0ABA7IW68)
# Technique: RNAcompete
# Molecule type: RNA
# Matrix: in vitro
# Concentration: 20 nM
# Notes: 7-mer, probes averaged, single round
# Baseline: mean of 7-mers
# Direction: higher = stronger binding
# Construct (chain): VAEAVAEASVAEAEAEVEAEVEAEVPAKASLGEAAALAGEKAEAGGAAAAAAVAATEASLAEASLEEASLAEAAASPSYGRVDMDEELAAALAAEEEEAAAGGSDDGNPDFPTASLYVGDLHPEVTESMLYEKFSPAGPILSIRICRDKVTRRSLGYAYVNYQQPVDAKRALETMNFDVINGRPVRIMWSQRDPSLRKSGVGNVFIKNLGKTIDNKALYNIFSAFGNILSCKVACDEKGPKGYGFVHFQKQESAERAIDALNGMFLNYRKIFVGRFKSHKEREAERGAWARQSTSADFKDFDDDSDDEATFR
Strand,7-mer Z-score
UAUAGGA,0.0678
CACAUGC,-0.22
GUCUGUG,-0.271
AACUAUG,0.177
GAGUGAU,-0.121
UGACGGG,0.1
AUAUAAA,1.83
GUCUGAA,-0.0536
UAGCAAA,0.456
CGCCCGG,-0.128
CGGGCGA,0.408
UAUCUCA,-0.153
GCGUGGU,0.111
AUACGGA,0.0696
ACAUGCU,-0.0319
AUGGGUA,0.0569

# Series 5
# Target: Histone acetyltransferase KAT6A, winged helix 1, GST fusion (KAT6A, Homo sapiens, UniProt Q92794, residues 1-85)
# Technique: protein binding microarray
# Molecule type: double-stranded DNA, one strand shown
# Matrix: in vitro
# Concentration: not given
# Notes: 8-mer, flanks averaged, mean of 2 arrays, mostly near background
# Baseline: not given
# Direction: higher = stronger binding
# Construct (chain): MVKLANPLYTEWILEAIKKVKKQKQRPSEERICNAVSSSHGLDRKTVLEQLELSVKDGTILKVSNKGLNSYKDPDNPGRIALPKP
Strand,E-score
AGTGATCC,-0.0221
ACCTCTAA,-0.104
ACTCTACC,-0.104
ATTGCGCA,0.275
AAGTTTGA,0.00973
TAGATGAA,-0.163
CGTCTCCC,0.0675
AGGAGTGC,-0.017
GCTACGCA,0.176
GATGACAC,-0.115
ATCCGGCA,-0.00709
AACACTGA,-0.0716
GCGACGTA,0.14
CGTCCAAC,0.00771
AACCTGCA,-0.164
AGGGCCAG,-0.192
AATCGTGA,-0.0426
GATAGTTA,-0.0962
AGGCTGCC,-0.175
CCGCACGC,0.377
CTAGCATC,-0.0372
ATTTTTGC,-0.187
ACATATCG,-0.0169
TCACCCCA,-0.145
AGCACTAG,-0.0844

# Repeated from above (series 5):
Strand,E-score
AGGCTGCC,-0.175
GATGACAC,-0.115
GCGACGTA,0.14
AACCTGCA,-0.164
CTAGCATC,-0.0372
ATTGCGCA,0.275
AATCGTGA,-0.0426
ACTCTACC,-0.104
AGGAGTGC,-0.017
AGCACTAG,-0.0844
